Measurements from different studies.
Lines come from different studies, so protocols differ. ± gives the spread as reported.

SMILES | method | matrix | time | pH | temperature | setting | solubility
CCn1c(SCC(=O)Nc2ccccc2OC)nnc1-c1c[nH]c2ccccc12 | – | aqueous buffer | – | pH 7.4 | – | – | < 2.18 µg/mL
Cc1cccc([C@H]2N[C@@H](c3ccc(-c4ccccn4)cc3)CO[C@@H]2C)c1 | shake-flask, LC-HRMS | aqueous buffer | 16 h | pH 6.8 | – | – | < 4 µM
COc1ccc(-n2c(SCC(N)=O)nnc2-c2cccs2)cc1 | – | aqueous buffer | – | pH 7.4 | – | – | 16.4 µg/mL
NC[C@H](NC(=O)[C@@H](CCCCNC(=O)CN1CCN(CC(=O)O)CCN(CC(=O)O)CCN(CC(=O)O)CC1)NC(=O)[C@@H](Cc1c[nH]c2ccccc12)NC(=O)OCC1c2ccccc2-c2ccccc21)C(N)=O | – | water | – | – | – | – | ≥ 5000 µM
Clc1nc(SCc2ccccc2)c2[nH]cnc2n1 | UV absorbance | culture medium | – | – | – | stock diluted to 0.40 mM | 50 µM
c1ccc(-c2ccc([C@H]3COC[C@H](c4ccc(-n5cncn5)cc4)N3)cc2)cc1 | shake-flask, LC-HRMS | aqueous buffer | 16 h | pH 6.8 | – | – | < 4 µM
CC(=O)Nc1ccc(Nc2ncnc(N[C@@H](CC(C)C)C(=O)O)n2)cc1 | – | – | 3 (unit not given) | – | – | – | > 200 µM
N#Cc1ccc([C@@H]2COC[C@@H](c3ccc(F)cc3)N2)cc1 | shake-flask, LC-HRMS | aqueous buffer | 16 h | pH 6.8 | – | – | > 750 µM
Cc1cc(/C=C/C#N)cc(C)c1Nc1ccnc(Nc2ccc(C#N)cc2)n1 | – | Capryol 90 | 24 h | – | 37 °C | – | 2840 ± 150 µg/mL
Cc1[nH]c(/C=C2\N=C(c3ccc[nH]3)C=C2OCc2ccccc2)cc1Cc1ccc(Cl)cc1.Cl | – | potassium phosphate buffer | 1.5 h | pH 7.4 | room temperature | – | 19.1 µM
O=C1c2ccccc2C(=O)N1CCCc1nc(-c2cccc([N+](=O)[O-])c2)no1 | – | aqueous buffer | – | pH 7.4 | – | – | < 2.03 µg/mL
COc1cc(OC)c2c(=O)cc(-c3ccccc3)oc2c1 | HPLC | ethanol:butylene glycol 25:75 | – | – | – | – | 13140 ± 20 ppm
O=C(COc1ccccc1[N+](=O)[O-])Nc1ccccc1N1CCOCC1 | – | aqueous buffer | – | pH 7.4 | – | – | < 2.55 µg/mL
CC(C)Nc1ccnc(Nc2ccccc2-c2ccccc2)n1 | – | citrate phosphate-buffered saline | 18 h | pH 7.4 | – | 1% DMSO | 26.5 ± 1.1 µM
O=S(=O)(c1ccc(-c2ccc3ncccc3c2)cc1)N1CCOCC1 | thermodynamic | aqueous medium | – | – | – | – | 18 µM
Clc1ccc([C@H]2COC[C@@H](c3cccc(Br)c3)N2)cc1 | shake-flask, LC-HRMS | aqueous buffer | 16 h | pH 6.8 | – | – | < 4 µM
CCOc1ccc2nc(SCC(=O)Nc3c(C)n(C)n(-c4ccccc4)c3=O)sc2c1 | – | aqueous buffer | – | pH 7.4 | – | – | < 3.25 µg/mL
CCOC(=O)N1C[C@@H](c2ccc(Cl)cc2)N[C@H](c2ccc(C(=O)OC)cc2)C1 | shake-flask, LC-HRMS | aqueous buffer | 16 h | pH 6.8 | – | – | < 4 µM
CN(Cc1ccc(C(C)(C)C)cc1)Cc1cccc2ccccc12 | – | PBS | 2 h | pH 7.4 | 25 °C | 2% DMSO | 10 µM
C[C@H]1OC[C@@H](c2ccc(-c3ccccn3)cc2)N[C@@H]1c1ccc(F)cc1Cl | shake-flask, LC-HRMS | aqueous buffer | 16 h | pH 6.8 | – | – | < 4 µM
N=C(N)c1ccc2cc(NS(=O)(=O)c3ccccc3)ccc2c1 | – | aqueous buffer | – | pH 7.4 | – | – | 66.6 µg/mL
CCOC(=O)N1C[C@@H](C2CCOCC2)N[C@@H]([C@H](C)CC)C1 | shake-flask, LC-HRMS | aqueous buffer | 16 h | pH 6.8 | – | – | > 750 µM
CC1(CNC(=O)c2ccc(-c3ccccc3)cc2)NC(=O)NC1=O (stereo not shown) | – | aqueous buffer | – | pH 7.4 | – | – | 13 µg/mL
CCOC(=O)N1C[C@@H]([C@H]2CCOC2)N[C@@H](C2CC2)C1 | shake-flask, LC-HRMS | aqueous buffer | 16 h | pH 6.8 | – | – | > 750 µM
Cc1c(C(=O)O)ccc2c3n(nc12)[C@@H]1[C@H](C3)N(CC2CC2)[C@@]2(C(=O)Nc3cc(Cl)ccc32)[C@H]1c1cccc(Cl)c1F | – | FeSSIF | – | – | – | – | 80 µg/mL
